Measured values of several laboratories.
Compare with care: the assays were run in different laboratories. pKd: −log10 of the molar value.
U2AF2: U2AF2 148-342 (Homo sapiens, UniProt P26368)
UniProt P26368, sequence (whole entry, looked up): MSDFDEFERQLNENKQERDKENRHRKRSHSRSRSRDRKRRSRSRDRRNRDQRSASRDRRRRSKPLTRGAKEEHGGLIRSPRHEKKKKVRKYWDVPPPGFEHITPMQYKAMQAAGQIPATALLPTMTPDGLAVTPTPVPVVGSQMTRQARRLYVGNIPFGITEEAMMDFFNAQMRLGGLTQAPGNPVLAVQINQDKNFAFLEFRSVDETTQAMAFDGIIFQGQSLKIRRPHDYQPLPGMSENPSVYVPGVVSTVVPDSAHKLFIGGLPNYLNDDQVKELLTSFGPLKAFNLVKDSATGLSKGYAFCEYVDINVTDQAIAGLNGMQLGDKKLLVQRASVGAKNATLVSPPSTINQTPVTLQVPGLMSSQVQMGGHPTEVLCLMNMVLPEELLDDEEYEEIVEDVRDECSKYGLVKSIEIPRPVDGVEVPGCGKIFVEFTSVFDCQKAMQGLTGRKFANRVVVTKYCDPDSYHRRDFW
B1: NINJ1 F117Q (Homo sapiens, UniProt Q92982); sequence looked up; chain MDSGTEEYELNGGLPPGTPGSPDASPARWGWRHGPINVNHYASKKSAAESMLDIALLMANASQLKAVVEQGPSFAFYVPLVVLISISLVLQIGVGVLLIFLVKYDLNNPAKHAKLDQLNNLATGLVFIIVVVNIFITAFGVQKPLMDMAPQQ
B2: clcA 1-465 C85A/L194A/I197A/L198A/I201A (Escherichia coli, UniProt P37019); chain MKTDTPSLETPQAARLRRRQLIRQLLERDKTPLAILFMAAVVGTLVGLAAVAFDKGVAWLQNQRMGALVHTADNYPLLLTVAFLASAVLAMFGYFLVRKYAPEAGGSGIPEIEGALEDQRPVRWWRVLPVKFFGGLGTLGGGMVLGREGPTVQIGGNIGRMVLDIFRLKGDEARHTLLATGAAAGLAAAFNAPAAGAAFIAEEMRPQFRYTLISIKAVFIGVIMSTIMYRIFNHEVALIDVGKLSDAPLNTLWLYLILGIIFGIFGPIFNKWVLGMQDLLHRVHGGNITKWVLMGGAIGGLCGLLGFVAPATSGGGFNLIPIATAGNFSMGMLVFIFVARVITTLLCFSSGAPGGIFAPMLALGTVLGTAFGMVAVELFPQYHLEAGTFAIAGMGALLAASIRAPLTGIILVLEMTDNYQLILPMIITGLGATLLAQFTGGKPLYSAILARTLAKQEAEQLARSK
B3: human annexin A1; sequence looked up; chain AMVSEFLKQAWFIENEEQEYVQTVKSSKGGPGSAVSPYPTFNPSSDVAALHKAIMVKGVDEATIIDILTKRNNAQRQQIKAAYLQETGKPLDETLKKALTGHLEEVVLALLKTPAQFDADELRAAMKGLGTDEDTLIEILASRTNKEIRDINRVYREELKRDLAKDITSDTSGDFRNALLSLAKGDRSEDFGVNEDLADSDARALYEAGERRKGTDVNVFNTILTTRSYPQLRRVFQKYTKYSKHDMNKVLDLELKGDIEKCLTAIVKCATSKPAFFAEKLHQAMKGVGTRHKALIRIMVSRSEIDMNDIKAFYQKMYGISLCQAILDETKGDYEKILVALCGGN
B4: DNAJB8 F148S (Homo sapiens, UniProt Q8NHS0); sequence looked up; chain MANYYEVLGVQASASPEDIKKAYRKLALRWHPDKNPDNKEEAEKKFKLVSEAYEVLSDSKKRSLYDRAGCDSWRAGGGASTPYHSPFDTGYTFRNPEDIFREFFGGLDPFSFEFWDSPFNSDRGGRGHGLRGAFSAGFGEFPAFMEASSSFNMLGCSGGSHTTFSSTSFGGSSSGSSGFKSVMSSTEMINGHKVTTKRIVENGQERVEVEEDGQLKSVTVNGKEQLKWMDSK
B5: clpC E280A/E618A (Bacillus subtilis, UniProt P37571); chain MMFGRFTERAQKVLALAQEEALRLGHNNIGTEHILLGLVREGEGIAAKALQALGLGSEKIQKEVESLIGRGQEMSQTIHYTPRAKKVIELSMDEARKLGHSYVGTEHILLGLIREGEGVAARVLNNLGVSLNKARQQVLQLLGSNETGSSAAGTNSNANTPTLDSLARDLTAIAKEDSLDPVIGRSKEIQRVIEVLSRRTKNNPVLIGEPGVGKTAIAEGLAQQIINNEVPEILRDKRVMTLDMGTVVAGTKYRGEFEDRLKKVMDEIRQAGNIILFIDALHTLIGAGGAEGAIDASNILKPSLARGELQCIGATTLDEYRKYIEKDAALERRFQPIQVDQPSVDESIQILQGLRDRYEAHHRVSITDDAIEAAVKLSDRYISDRFLPDKAIDLIDEAGSKVRLRSFTTPPNLKELEQKLDEVRKEKDAAVQSQEFEKAASLRDTEQRLREQVEDTKKSWKEKQGQENSEVTVDDIAMVVSSWTGVPVSKIAQTETDKLLNMENILHSRVIGQDEAVVAVAKAVRRARAGLKDPKRPIGSFIFLGPTGVGKTELARALAESIFGDEESMIRIDMSEYMEKHSTSRLVGSPPGYVGYDEGGQLTEKVRRKPYSVVLLDAIEKAHPDVFNILLQVLEDGRLTDSKGRTVDFRNTILIMTSNVGASELKRNKYVGFNVQDETQNHKDMKDKVMGELKRAFRPEFINRIDEIIVFHSLEKKHLTEIVSLMSDQLTKRLKEQDLSIELTDAAKAKVAEEGVDLEYGARPLRRAIQKHVEDRLSEELLRGNIHKGQHIVLDVEDGEFVVKTTAKTN
B6: SPOP R70Q (Homo sapiens, UniProt O43791); sequence looked up; chain MSRVPSPPPPAEMSSGPVAESWCYTQIKVVKFSYMWTINNFSFCREEMGEVIKSSTFSSGANDKLKWCLQVNPKGLDEESKDYLSLYLLLVSCPKSEVRAKFKFSILNAKGEETKAMESQRAYRFVQGKDWGFKKFIRRDFLLDEANGLLPDDKLTLFCEVSVVQDSVNISGQNTMNMVKVPECRLADELGGLWENSRFTDCCLCVAGQEFQAHKAILAARSPVFSAMFEHEMEESKKNRVEINDVEPEVFKEMMCFIYTGKAPNLDKMADDLLAAADKYALERLKVMCEDALCSNLSVENAAEILILADLHSADQLKTQAVDFINYHASDVLETSGWKSMVVSHPHLVAEAYRSLASAQCPFLGPPRKRLKQS
B7: Gm4951 Q183A/D185A (Mus musculus, UniProt Q3UED7); sequence looked up; chain MGQLFSSRRSEDQDLSSSFIEYLKECEKGINIIPHEIITSIEINMKKGNIQEVNSTVRDMLREIDNTPLNVALTGETGSGKSSFINTLRGIGHEEGGAAHTGVTDKTKERHPYEHPKMPNVVFWDLPGTGSEDFQPKTYLEKMKFYEYDFFIIISATRFKKNDIDLAKAIGIMKKEFYFVRTAVASDLRNEEDFKPQTFDREKVLQDIRLNCVNTFRENGIAEPPIFLISNKNVCHYDFPVLMDKLISDLPVFKRQNFMFSLPNITDSVIEKKRNFLRWKTWLEGFADGLLSFFLESDLETLEKSMKFYRTVFGVDDASLQRLARAWEIDQVDQVRAMIKSPAVFTPTDEETIQERLSRYNQEFCLANGYLLPKNHCREILYLKLYFLDMVTEDAKTLLKEICLRN
B8: SPOP D77E (Homo sapiens, UniProt O43791); sequence looked up; chain MSRVPSPPPPAEMSSGPVAESWCYTQIKVVKFSYMWTINNFSFCREEMGEVIKSSTFSSGANDKLKWCLRVNPKGLEEESKDYLSLYLLLVSCPKSEVRAKFKFSILNAKGEETKAMESQRAYRFVQGKDWGFKKFIRRDFLLDEANGLLPDDKLTLFCEVSVVQDSVNISGQNTMNMVKVPECRLADELGGLWENSRFTDCCLCVAGQEFQAHKAILAARSPVFSAMFEHEMEESKKNRVEINDVEPEVFKEMMCFIYTGKAPNLDKMADDLLAAADKYALERLKVMCEDALCSNLSVENAAEILILADLHSADQLKTQAVDFINYHASDVLETSGWKSMVVSHPHLVAEAYRSLASAQCPFLGPPRKRLKQS
B9: PHYA 1-876 I748P (Arabidopsis thaliana, UniProt P14712); phytochromobilin thioether linked; chain GMSGSRPTQSSEGSRRSRHSARIIAQTTVDAKLHADFEESGSSFDYSTSVRVTGPVVENQPPRSDKVTTTYLHHIQKGKLIQPFGCLLALDEKTFKVIAYSENASELLTMASHAVPSVGEHPVLGIGTDIRSLFTAPSASALQKALGFGDVSLLNPILVHCRTSAKPFYAIIHRVTGSIIIDFEPVKPYEVPMTAAGALQSYKLAAKAITRLQSLPSGSMERLCDTMVQEVFELTGYDRVMAYKFHEDDHGEVVSEVTKPGLEPYLGLHYPATDIPQAARFLFMKNKVRMIVDCNAKHARVLQDEKLSFDLTLCGSTLRAPHSCHLQYMANMDSIASLVMAVVVNEEDGEGDAPDATTQPQKRKRLWGLVVCHNTTPRFVPFPLRYACEFLAQVFAIHVNKEVELDNQMVEKNILRTQTLLCDMLMRDAPLGIVSQSPNIMDLVKCDGAALLYKDKIWKLGTTPSEFHLQEIASWLCEYHMDSTGLSTDSLHDAGFPRALSLGDSVCGMAAVRISSKDMIFWFRSHTAGEVRWGGAKHDPDDRDDARRMHPRSSFKAFLEVVKTRSLPWKDYEMDAIHSLQLILRNAFKDSETTDVNTKVIYSKLNDLKIDGIQELEAVTSEMVRLIETATVPILAVDSDGLVNGWNTKIAELTGLSVDEAIGKHFLTLVEDSSVEIVKRMLENALEGTEEQNVQFEIKTHLSRADAGPISLVVNACASRDLHENVVGVCFVAHDLTGQKTVMDKFTRPEGDYKAIIQNPNPLIPPIFGTDEFGWCTEWNPAMSKLTGLKREEVIDKMLLGEVFGTQKSCCRLKNQEAFVNLGIVLNNAVTSQDPEKVSFAFFTRGGKYVECLLCVSKKLDREGVVTGVFCFLQLAS
B10: POL30 K127G/K164C (Saccharomyces cerevisiae, UniProt P15873); sequence looked up; chain MLEAKFEEASLFKRIIDGFKDCVQLVNFQCKEDGIIAQAVDDSRVLLVSLEIGVEAFQEYRCDHPVTLGMDLTSLSKILRCGNNTDTLTLIADNTPDSIILLFEDTKKDRIAEYSLKLMDIDADFLGIEELQYDSTLSLPSSEFSKIVRDLSQLSDSINIMITCETIKFVADGDIGSGSVIIKPFVDMEHPETSIKLEMDQPVDLTFGAKYLLDIIKGSSLSDRVGIRLSSEAPALFQFDLKSGFLQFFLAPKFNDEE
B11: dlg1 1-97 I34G (Drosophila melanogaster, UniProt P31007); sequence looked up; chain MPVKKQEAHRALELLEDYHARLSEPQDRALRIAGERVIRIFKSRLFQALLDIQEFYELTLLDDSKSIQQKTAETLQIATKWEKDGQAVKIADFIKSS
UniProt Q8C1C8, sequence (whole entry, looked up): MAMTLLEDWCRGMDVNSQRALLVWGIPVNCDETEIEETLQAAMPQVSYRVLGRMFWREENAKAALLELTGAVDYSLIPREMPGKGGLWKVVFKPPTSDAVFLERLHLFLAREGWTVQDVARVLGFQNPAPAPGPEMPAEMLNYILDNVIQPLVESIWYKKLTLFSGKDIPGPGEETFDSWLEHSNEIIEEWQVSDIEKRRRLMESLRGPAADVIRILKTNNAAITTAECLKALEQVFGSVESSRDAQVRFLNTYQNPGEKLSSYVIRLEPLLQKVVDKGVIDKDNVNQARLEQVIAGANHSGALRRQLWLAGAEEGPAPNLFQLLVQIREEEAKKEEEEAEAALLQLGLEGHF

Molecule | target or system | test | system | setting | how to read | endpoint | result
dnaJ2 (Thermus thermophilus, UniProt Q56237) | itself | cryo-EM |  |  |  | binding | binds
B1 (NINJ1 F117Q) | itself | negative-stain EM |  |  |  | binding | binds
B2 | itself | SEC |  |  |  | binding | binds
B3 (human annexin A1) | PP6C (human) | co-immunoprecipitation, IP-MS | CYB5R4 knockout cells | concentration not given | reference: CYB5R4 knockout over parental | log2 fold change | 0.49
B4 (DNAJB8 F148S) | itself | dynamic light scattering |  | pH 7.4, room temperature |  | binding | binds
MDKVQYLTRSAIRRASTIEMPQQARQNLQNLFINFCLILICLLLICIIVMLL (PLN (Sus scrofa, UniProt P61013); pS16; sequence looked up) | itself | immunoblot SDS-PAGE |  |  |  | binding | binds
B5 (clpC E280A/E618A) | itself | SEC |  | with: ATP |  | binding | binds
B6 (SPOP R70Q) | itself | negative-stain TEM |  |  |  | binding | binds
B7 (Gm4951 Q183A/D185A) | itself | mass photometry |  |  |  | binding | binds
UUUCUGGUG (ssRNA) | U2AF2 | sequencing of bound RNA | RNA | motif only |  | pKd | 4.92
B8 (SPOP D77E) | itself | negative-stain TEM |  |  |  | binding | binds
B9 (PHYA 1-876 I748P) | itself | SEC |  |  |  | binding | binds
GUUCUUCCA (ssRNA) | U2AF2 | sequencing of bound RNA | RNA | motif only |  | pKd | 5.00
B10 (POL30 K127G/K164C) | itself | SEC |  |  |  | binding | binds
Pnma1 (Mus musculus, UniProt Q8C1C8) | itself | size-exclusion chromatography, negative-stain TEM |  |  |  | binding | binds
DSNTRILIGSLVAIIFILLAIIVIILWRQFWQK (DDR2 395-427 C404S (Homo sapiens, UniProt Q16832); sequence looked up) | itself | SDS-PAGE |  |  |  | binding | binds
B11 (dlg1 1-97 I34G) | itself | SEC |  |  |  | binding | binds

Repeated from above:
Molecule | target or system | test | system | setting | how to read | endpoint | result
B6 (SPOP R70Q) | itself | negative-stain TEM |  |  |  | binding | binds
B7 (Gm4951 Q183A/D185A) | itself | mass photometry |  |  |  | binding | binds
UUUCUGGUG (ssRNA) | U2AF2 | sequencing of bound RNA | RNA | motif only |  | pKd | 4.92
